Assay results pooled from the literature.
Numbered parts are unrelated; each lists some results of a single study. Substitutions count along the parent as printed.

Set 1 — technique: RNA Bind-n-Seq; molecule type: RNA; sample: in vitro; concentration: not given; baseline: input RNA pool; direction: higher = stronger binding
Target: RING finger protein unkempt homolog, zinc fingers 1-6, GST-SBP tag (UNK, Homo sapiens, UniProt Q9C0B0, residues 30-357)
Chain of UniProt Q9C0B0 (30-357, looked up): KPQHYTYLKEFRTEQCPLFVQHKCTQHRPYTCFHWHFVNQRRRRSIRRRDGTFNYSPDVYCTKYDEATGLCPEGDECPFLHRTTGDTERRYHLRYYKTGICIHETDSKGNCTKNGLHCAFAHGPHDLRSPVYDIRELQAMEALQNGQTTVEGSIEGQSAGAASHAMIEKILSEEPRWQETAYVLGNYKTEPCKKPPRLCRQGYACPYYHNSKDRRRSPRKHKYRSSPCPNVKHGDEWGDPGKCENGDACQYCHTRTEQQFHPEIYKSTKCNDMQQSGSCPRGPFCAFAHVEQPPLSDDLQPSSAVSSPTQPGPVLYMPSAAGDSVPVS
Setting: RNA with constant flanks, human-mouse chimeric sites, ends assumed
Sequence	bound/input enrichment
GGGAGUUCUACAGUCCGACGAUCCCUCCCCGGGCCACCCAACCCCUCCCGGCUCCCCGCCGAGAUCCAGGUUUCUUCUUAUUUCAUAGCAAAUAAGAAAAAUGUUCUACGCACAUUUUGUCCUCAGUAAACGAGGGCCUCUGGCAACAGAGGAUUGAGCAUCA	0.395 ratio
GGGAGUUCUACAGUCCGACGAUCGUGACUGACAUUAAAAUUUCCCCUCAGCAAAGAAGUGCAGUAGUCACCAUAAUUCCAUCUAUAGUGAGUGCCAGUCAGAUUGUGGAGCUGGUCCCAGACCUCAGUUUAGACAUGGGAACUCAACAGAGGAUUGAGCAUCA	1.14 ratio
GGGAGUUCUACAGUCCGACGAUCCUGUGUGUGCUGAAUAAAUGGCUUGUAAAGAAGUUUUCCAAGUUGUAACCCAUGUACGUUAUUAUAGUUGCUGCAAAAUGUUCUUCCUGAUAUUGAUUUUAUUUGUUAACUGAAGGUCUCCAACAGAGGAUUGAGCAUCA	0.647 ratio
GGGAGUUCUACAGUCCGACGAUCAAAGUGAUGACUAUGUUUGUCCAACGACAGGUAUUUUCGGAGAGCAAAGAUGAGAUUGCGUUAGUCCUCUAUGGCACAGAUGGCACUGAUAAUGCCCUUUCUGGUGGGGACCAGUAUCAGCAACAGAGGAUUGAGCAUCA	0.237 ratio
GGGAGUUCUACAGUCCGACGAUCCUGGCCUGGCCCUCCCCAGGGGCCUCCUUCUCUGCAUUCACUGCUUCUGCAUCAGAUAUUUUUAGCUGCAACUCCCUACUGGGUGGGGCACCCAUUUCAGGCAGAAGGUUUUGGUACCCUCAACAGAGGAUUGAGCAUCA	0.321 ratio
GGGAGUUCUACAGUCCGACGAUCGCAAAGGAUGAUGAGGCGGCAGCUGUUGCCCUUUCCUCCCUGAUUCAUGCUUUGGAUGAGUUAAACAUGGUGGCCAUCGUCCGAUAUGCUUAUGACAAAAGAUCUAAUCCUCAAGUUGGUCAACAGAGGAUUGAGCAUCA	0.132 ratio
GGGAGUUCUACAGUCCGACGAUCUUGCUACUGACUCCCUGGGUCAAGUUCCUGUGGGAAUCUUACAGGCAGUGUUUGGACCUUCUUCGAAACAAUUCUAGAGUAGAGCGCCUGUACCAUGAUAUCGCCCAACAAGCUUUCAAACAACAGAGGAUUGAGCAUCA	0.184 ratio
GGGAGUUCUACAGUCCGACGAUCGAGCGUCUUGCCCGCACUGGGAUCAUCGUGACCACUAGUGAGGCUGUCCUCCUACAGCUGGUGGCUGAUAAGGACCAUCCAAAAUUCAAGGAAAUUCAGAACCUAAUUAAGGCGAGUGCCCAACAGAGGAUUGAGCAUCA	0.127 ratio
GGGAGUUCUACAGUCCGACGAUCAAAGUGGACUAUGGCGAAUACAUGGAUAAAAACAAUGUGAGGCGGCAAGCAACAACAAUCAUAGCUGAUAACAUUAUAUUUCUGAGUGACCAGACGAAAGAAAAGGCAUAGAACGGAUGACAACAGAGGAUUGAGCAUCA	1.76 ratio
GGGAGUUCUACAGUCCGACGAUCACUCUUGACUCUUUCCAUCCUCUUCCUUUCCCUCUUGAUAUUCAAGGCCAUGAAUCCCAAAAUAGCUGUCUUAGUGGCUAGCACCCAAACAGAGGUGGAAUAAAUCCAAACUGACAACUCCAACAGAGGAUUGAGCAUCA	0.983 ratio
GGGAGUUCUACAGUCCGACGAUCAAAGAACUACUGAGGCAAGGCAGCAAAUUUAGGAGAGAUGUAUCAACAAUAUUGAUAGAGUUAGGAUUCCAAAUUAAAAAGAAAACUAAGACAUUAUAUAUCAACAAAGCCAAUGUGUGGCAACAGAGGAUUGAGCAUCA	5.44 ratio

Set 2 — technique: aptamer microarray, sandwich; molecule type: DNA with 2'F-ANA; sample: in vitro; concentration: 200 nM; together with: Cy3 exosite-II aptamer, 400 nM; direction: higher = stronger binding; sequence: GGTTGGTGTGGTTGG
Target: Prothrombin, mature alpha-thrombin (F2, Homo sapiens, UniProt P00734)
Setting: whole 15-mer aptamer, many near background
Modification	mean fluorescence intensity [a.u.]
2'F-ANA at 1 3 4 5 6 7 9 10 11 13 15	54.9
2'F-ANA at 1 2 7 9 10 13 14	71.6
2'F-ANA at 1 3 4 6 7 8 14	77.7
2'F-ANA at 1 3 4 6 7 11 12 13 14	73.7
2'F-ANA at 1 2 4 7 8 9 12 14 15	68.5
2'F-ANA at 3 4 6 7 8 10 11 12 15	266
2'F-ANA at 2 3 4 10 11	263
2'F-ANA at 1 3 4 9 10 11 13 14 15	56.6
2'F-ANA at 2 3 4 7 8 9 13 14	265
2'F-ANA at 1 2 5 6 7 8 9 10 11 13	78.4
2'F-ANA at 2 3 10 11 14	280
2'F-ANA at 3 4 5 9 10 11 14 15	49.3
2'F-ANA at 1 2 3 4 5 7 8 12 14 15	62.2
2'F-ANA at 2 3 4 9 11	583
2'F-ANA at 2 8 11 12 14	202
2'F-ANA at 2 4 5 13	55.7
2'F-ANA at 1 2 3 8 9 10 12 14	54.7
2'F-ANA at 1 2 4 5 6 8 12 14	51

Set 3 — technique: protein binding microarray; molecule type: double-stranded DNA, one strand shown; sample: in vitro; concentration: not given; baseline: not given; direction: higher = stronger binding
Target: Histone acetyltransferase KAT6A, winged helix 2, GST fusion (KAT6A, Homo sapiens, UniProt Q92794, residues 85-181)
Setting: 8-mer, flanks averaged, mean of 2 arrays, mostly near background
Target sequence (chain): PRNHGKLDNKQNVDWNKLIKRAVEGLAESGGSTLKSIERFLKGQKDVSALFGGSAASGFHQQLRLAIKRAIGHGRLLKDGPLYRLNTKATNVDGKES
Sequence	E-score
AAAGCTCC	0.0484
AGAACGTC	-0.152
GCGTCGGA	0.0893
AGACTCAA	-0.0415
TACTCCAA	0.0273
CAATACGC	-0.148
CAGAGCGC	-0.0214
ACATCTTA	-0.0331
ACTATCGC	-0.00514
CTCTTCAG	-0.00063
CCGAGTGC	0.167
CGGTAGGC	-0.00881
CCGTAGCG	-0.0743
CGGCGCTC	0.217
AAGGGCCG	0.112
AGATCTAT	-0.0508
CCAGTGGG	0.0981
CCAAGGGG	0.23
CCCATCGA	-0.134
GACTGTCC	-0.17
AAGGCTAG	-0.0493
ACAAACAT	-0.0578
AGTGATGG	-0.0662
CAGGAGAG	0.0678
ACGCCGAG	0.155

Set 4 — target: CCNB1, cyclin fold, Cln2 fusion (human); technique: yeast growth competition, sequencing; sample: yeast; setting: weak parent motif; baseline: not given; direction: higher = stronger binding
Parent: WEE1 docking peptide (human); HKTFRKLRLFDTP
Change	normalised enrichment score
HKTFLKLRLFDTP [R5L]	0.083
HKTRRKLRLFDTP [F4R]	0.445
HKTFRKLRLVDTP [F10V]	-0.152
HKEFRKLRLFDTP [T3E]	0.274
HKTFRKLQLFDTP [R8Q]	1.37
HKTFRKLRNFDTP [L9N]	0.685
HKTPRKLRLFDTP [F4P]	0.15
HKTFRKLRLFDTQ [P13Q]	-0.105
HKTFRKLRFFDTP [L9F]	0.309
HKTFRKLNLFDTP [R8N]	1.03
HKTFRKLRLFHTP [D11H]	-0.401
HKTFRKLPLFDTP [R8P]	-0.0368
HKTFRKLKLFDTP [R8K]	0.0774
LKTFRKLRLFDTP [H1L]	0.85

Other studies, line by line
Substance	target	assay	test system	conditions	how to read	endpoint	result
PhoQ, residues 284 288 289 292 302 303 SACGEM	PhoP, residues 12 14 15 18 19 TQAIL (Escherichia coli, UniProt P23836)	Sort-seq, item: YFP reporter	E. coli	PhoQ-PhoP variant library, together with: 10 µM Mg2+	baseline: high Mg2+ state, higher = stronger signaling	fold induction	2.74

Repeated from above (set 3):
Sequence	E-score
CCGTAGCG	-0.0743
CGGCGCTC	0.217
AAGGGCCG	0.112
AGATCTAT	-0.0508
CCAGTGGG	0.0981
CCAAGGGG	0.23
CCCATCGA	-0.134
